Measured values from different studies.
Each line is one published result; not all experiments were run side by side. Several values in a cell are separate wells, animals, samples, runs or records. ± gives the spread as reported.

`C[C@@H]1O[C@@H](O[C@H]2C[C@@H](O)[C@]3(CO)[C@H]4[C@H](O)C[C@]5(C)[C@@H](C6=CC(=O)OC6)CC[C@]5(O)[C@@H]4CC[C@]3(O)C2)[C@H](O)[C@H](O)[C@H]1O` gave a CC50 of 0.023 µM (PH5CH8 hepatocytes; high-content cell count; 72 h, oleate lipid loaded).
For `OCCN1CCN(CC/C=C2/c3ccccc3Sc3ccc(C(F)(F)F)cc32)CC1`, the IC50 was 2.51 µM (Plasmodium falciparum; 7G8).
`CNS(=O)(=O)c1ccc(CCNC(=O)c2cc(Cl)ccc2OC)cc1` — result for “maximum tolerated dose”: 1.56 µg/mL (THP-1 ASC-GFP monocytes; MTT; 24 h).
The IC10 of `C=C1CC[C@@H]2[C@](C)(CO)[C@H](O)CC[C@@]2(C)[C@@H]1C/C=C1/C(=O)OC[C@H]1O` is reported as 95 µM (AREc32; cell confluency, imaging; 24 h).
For `CC(c1ccccc1)(c1ccc(O)cc1)c1ccc(O)cc1`, “early apoptotic cells” read 5.85 ± 2.72% (HepG2 spheroids, dissociated; annexin V-FITC/PI flow cytometry; 0.10 µM, 96 h).
Under “minimum cytotoxic concentration”, `Nc1nc(CC(O)c2ccccc2C(F)(F)F)c(Br)c(=O)[nH]1` (stereo not shown) is recorded as > 100 µM (HeLa; cell morphology alteration).
With `CC(C)C[C@H](NC(=O)[C@H](C)NC(=O)[C@@H](NC(=O)[C@H](CCCNC(=N)N)NC(=O)[C@H](CC(C)C)NC(=O)[C@H](Cc1c[nH]c2ccccc12)NC(=O)[C@@H]1CCCN1C(=O)[C@@H](N)CCCCN)C(C)C)C(=O)N[C@@H](CS)C(=O)N1CCC[C@H]1C(=O)NCC(=O)O` the viability was 103% and 110% and 104% (H9c2; WST-1; 128 µM, 24 h).
Under “late apoptotic cells”, `CC(C)(c1ccc(O)cc1)c1ccc(O)cc1` is recorded as 4.31 ± 1.49% (HepG2 spheroids, dissociated; annexin V-FITC/PI flow cytometry; 1 µM, 24 h).
With `COC(=O)[C@@H]1[C@H]2C[C@H]3c4[nH]c5ccccc5c4CCN3C[C@@H]2CC[C@@H]1O` the IC50 was 3.98 µM (Plasmodium falciparum; HB3).
With `CC[C@H](C)[C@H](N)C(=O)N[C@H](C(=O)N[C@@H](Cc1ccccc1)C(=O)N[C@@H](Cc1c[nH]cn1)C(=O)N[C@H](C(=O)N[C@@H](CCCCN)C(=O)N[C@@H](CCCCN)C(=O)N[C@@H](CCCCN)C(=O)N[C@@H](CC(C)C)C(=O)N[C@@H](CO)C(=O)N[C@H](C(=O)N[C@@H](CS)C(=O)N[C@@H](C)C(=O)N[C@@H](CC(N)=O)C(=O)N1CCC[C@H]1C(=O)N[C@@H](CCCCN)C(=O)N[C@@H](CCC(N)=O)C(=O)N[C@H](C(=O)N[C@@H](Cc1c[nH]c2ccccc12)C(=O)N[C@H](C(=O)N[C@@H](CCCCN)C(=O)N[C@@H](Cc1ccc(O)cc1)C(=O)N[C@H](C(=O)N[C@H](C(=O)N[C@@H](CCCNC(=N)N)C(=O)N[C@@H](CC(C)C)C(=O)N[C@@H](CC(C)C)C(=O)N[C@@H](CO)C(=O)N[C@@H](CCCCN)C(=O)N[C@@H](CCCCN)C(=O)N[C@H](C(=O)N[C@@H](CCCCN)C(=O)O)C(C)C)C(C)C)[C@@H](C)CC)C(C)C)[C@@H](C)O)C(C)C)[C@@H](C)O)[C@@H](C)CC` the CC50 was 9.69 µM (PMA-differentiated THP-1; cell viability, MTT; 24 h).
`O=c1ccc2ccccc2o1` — result for “probability of response”: 13.5% (HepG2; refers to: heme oxygenase 1; concentration not given, 6 h).
`Oc1ccc(C2(c3ccc(O)cc3)c3ccccc3-c3ccccc32)cc1`: “late apoptotic cells” 9.02 ± 1.91% (HepG2 spheroids, dissociated; annexin V-FITC/PI flow cytometry; 40 µM, 24 h).
`CC[C@H](C)[C@H](NC(=O)[C@H](CCCNC(=N)N)NC(=O)[C@H](Cc1c[nH]c2ccccc12)NC(=O)[C@H](CCCNC(=N)N)NC(=O)[C@H](Cc1c[nH]c2ccccc12)NC(=O)[C@H](Cc1c[nH]c2ccccc12)NC(=O)[C@H](Cc1c[nH]c2ccccc12)NC(=O)[C@H](CCCNC(=N)N)NC(=O)[C@H](Cc1c[nH]c2ccccc12)NC(=O)[C@@H](N)CCCNC(=N)N)C(N)=O` has an LC50 of 180 µM (PK-15).
